Measured values of several laboratories.
A part holds a random share of what one study measured. “And” joins repeats or separate records; there may be more than shown.
Sequence of UniProt Q8IU85 (whole entry, looked up): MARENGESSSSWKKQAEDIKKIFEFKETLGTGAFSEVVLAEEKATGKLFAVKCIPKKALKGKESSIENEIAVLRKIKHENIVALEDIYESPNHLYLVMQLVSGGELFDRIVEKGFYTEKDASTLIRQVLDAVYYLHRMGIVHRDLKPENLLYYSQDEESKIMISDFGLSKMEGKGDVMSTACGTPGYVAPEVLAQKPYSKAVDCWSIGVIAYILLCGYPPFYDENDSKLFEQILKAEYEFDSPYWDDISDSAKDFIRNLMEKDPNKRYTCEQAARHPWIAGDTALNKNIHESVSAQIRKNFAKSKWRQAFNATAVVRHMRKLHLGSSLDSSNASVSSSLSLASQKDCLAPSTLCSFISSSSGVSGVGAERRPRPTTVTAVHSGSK
Sequence of UniProt P51817 (whole entry, looked up): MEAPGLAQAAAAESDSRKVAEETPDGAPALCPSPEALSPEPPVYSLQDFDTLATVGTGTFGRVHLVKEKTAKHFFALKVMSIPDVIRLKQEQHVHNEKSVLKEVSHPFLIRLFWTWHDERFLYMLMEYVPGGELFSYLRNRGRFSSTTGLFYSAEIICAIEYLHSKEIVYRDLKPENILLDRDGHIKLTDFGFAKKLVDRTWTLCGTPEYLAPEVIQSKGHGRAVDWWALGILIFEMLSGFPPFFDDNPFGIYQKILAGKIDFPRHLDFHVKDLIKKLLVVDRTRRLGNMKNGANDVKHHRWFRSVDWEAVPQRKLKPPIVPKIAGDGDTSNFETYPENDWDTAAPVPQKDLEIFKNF
Sequence of UniProt P10721 (whole entry, looked up): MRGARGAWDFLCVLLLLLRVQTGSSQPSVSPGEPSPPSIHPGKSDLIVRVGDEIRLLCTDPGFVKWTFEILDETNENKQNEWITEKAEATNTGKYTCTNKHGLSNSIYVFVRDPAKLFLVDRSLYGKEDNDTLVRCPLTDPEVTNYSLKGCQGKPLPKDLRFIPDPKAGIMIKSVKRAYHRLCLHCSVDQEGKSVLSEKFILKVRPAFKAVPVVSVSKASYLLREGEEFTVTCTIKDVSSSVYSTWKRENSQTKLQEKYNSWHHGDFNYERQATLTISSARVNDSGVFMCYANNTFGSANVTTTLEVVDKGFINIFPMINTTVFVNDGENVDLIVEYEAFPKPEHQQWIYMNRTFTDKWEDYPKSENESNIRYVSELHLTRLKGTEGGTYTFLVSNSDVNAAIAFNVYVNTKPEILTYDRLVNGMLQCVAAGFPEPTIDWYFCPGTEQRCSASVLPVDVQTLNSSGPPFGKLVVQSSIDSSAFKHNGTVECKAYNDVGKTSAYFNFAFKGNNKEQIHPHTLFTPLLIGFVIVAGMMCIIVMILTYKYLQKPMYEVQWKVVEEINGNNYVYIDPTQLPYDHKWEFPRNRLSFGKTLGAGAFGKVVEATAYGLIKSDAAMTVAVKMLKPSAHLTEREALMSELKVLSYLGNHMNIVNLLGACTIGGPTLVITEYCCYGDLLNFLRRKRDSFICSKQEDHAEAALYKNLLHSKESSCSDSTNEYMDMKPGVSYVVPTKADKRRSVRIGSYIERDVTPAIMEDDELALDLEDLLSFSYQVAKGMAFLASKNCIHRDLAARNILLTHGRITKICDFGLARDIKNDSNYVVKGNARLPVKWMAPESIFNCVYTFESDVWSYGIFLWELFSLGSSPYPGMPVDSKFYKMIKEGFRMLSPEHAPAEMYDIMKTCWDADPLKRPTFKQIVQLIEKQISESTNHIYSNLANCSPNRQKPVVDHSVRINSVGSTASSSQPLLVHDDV
Sequence of UniProt Q6DT37 (whole entry, looked up): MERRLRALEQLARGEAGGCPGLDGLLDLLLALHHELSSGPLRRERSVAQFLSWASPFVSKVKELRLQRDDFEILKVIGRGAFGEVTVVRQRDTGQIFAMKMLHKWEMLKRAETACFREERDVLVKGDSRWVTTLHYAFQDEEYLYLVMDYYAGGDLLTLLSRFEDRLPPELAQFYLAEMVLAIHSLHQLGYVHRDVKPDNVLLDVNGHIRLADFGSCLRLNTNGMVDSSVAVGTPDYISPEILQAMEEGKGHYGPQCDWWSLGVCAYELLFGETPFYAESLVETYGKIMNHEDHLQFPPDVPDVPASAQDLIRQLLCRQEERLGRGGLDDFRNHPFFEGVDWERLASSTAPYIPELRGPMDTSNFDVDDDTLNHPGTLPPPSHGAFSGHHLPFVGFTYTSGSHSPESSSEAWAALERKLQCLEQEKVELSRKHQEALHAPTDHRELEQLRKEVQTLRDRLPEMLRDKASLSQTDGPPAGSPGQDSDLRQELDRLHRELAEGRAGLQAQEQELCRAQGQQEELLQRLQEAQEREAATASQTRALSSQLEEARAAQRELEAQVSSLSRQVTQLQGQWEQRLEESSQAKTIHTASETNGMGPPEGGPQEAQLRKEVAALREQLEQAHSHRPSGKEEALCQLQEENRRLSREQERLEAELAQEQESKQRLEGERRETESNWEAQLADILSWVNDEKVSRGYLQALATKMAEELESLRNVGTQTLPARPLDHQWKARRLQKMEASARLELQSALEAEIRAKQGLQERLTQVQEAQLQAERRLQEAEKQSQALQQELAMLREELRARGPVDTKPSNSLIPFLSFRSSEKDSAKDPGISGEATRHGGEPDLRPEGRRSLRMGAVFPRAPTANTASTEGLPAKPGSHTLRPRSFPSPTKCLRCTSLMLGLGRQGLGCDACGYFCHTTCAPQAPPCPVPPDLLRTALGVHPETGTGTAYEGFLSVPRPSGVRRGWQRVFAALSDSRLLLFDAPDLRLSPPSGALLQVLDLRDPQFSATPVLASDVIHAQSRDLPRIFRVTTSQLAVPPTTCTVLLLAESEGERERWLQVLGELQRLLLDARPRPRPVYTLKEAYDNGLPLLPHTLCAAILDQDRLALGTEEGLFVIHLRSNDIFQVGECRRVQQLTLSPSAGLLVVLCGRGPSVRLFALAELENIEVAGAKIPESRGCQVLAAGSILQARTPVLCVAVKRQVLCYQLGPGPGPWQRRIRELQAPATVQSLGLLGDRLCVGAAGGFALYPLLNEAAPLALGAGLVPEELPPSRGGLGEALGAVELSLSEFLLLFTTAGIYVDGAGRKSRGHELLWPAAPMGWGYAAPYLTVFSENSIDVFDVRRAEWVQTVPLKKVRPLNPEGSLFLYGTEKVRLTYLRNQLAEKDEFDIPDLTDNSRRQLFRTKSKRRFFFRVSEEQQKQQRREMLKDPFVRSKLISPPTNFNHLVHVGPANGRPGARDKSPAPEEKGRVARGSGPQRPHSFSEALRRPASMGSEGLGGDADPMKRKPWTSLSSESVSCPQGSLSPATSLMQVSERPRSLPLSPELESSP
Sequence of UniProt P49137 (whole entry, looked up): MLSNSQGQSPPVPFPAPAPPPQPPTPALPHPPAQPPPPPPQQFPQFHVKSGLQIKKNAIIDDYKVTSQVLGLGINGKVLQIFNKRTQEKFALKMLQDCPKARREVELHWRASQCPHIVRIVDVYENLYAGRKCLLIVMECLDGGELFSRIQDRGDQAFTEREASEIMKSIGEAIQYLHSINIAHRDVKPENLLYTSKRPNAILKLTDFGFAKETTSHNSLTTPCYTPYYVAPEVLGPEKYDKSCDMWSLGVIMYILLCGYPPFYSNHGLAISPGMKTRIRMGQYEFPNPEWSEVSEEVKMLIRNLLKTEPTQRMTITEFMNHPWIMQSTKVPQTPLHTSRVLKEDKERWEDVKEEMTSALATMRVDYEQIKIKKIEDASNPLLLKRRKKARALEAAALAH
Sequence of UniProt P53667 (whole entry, looked up): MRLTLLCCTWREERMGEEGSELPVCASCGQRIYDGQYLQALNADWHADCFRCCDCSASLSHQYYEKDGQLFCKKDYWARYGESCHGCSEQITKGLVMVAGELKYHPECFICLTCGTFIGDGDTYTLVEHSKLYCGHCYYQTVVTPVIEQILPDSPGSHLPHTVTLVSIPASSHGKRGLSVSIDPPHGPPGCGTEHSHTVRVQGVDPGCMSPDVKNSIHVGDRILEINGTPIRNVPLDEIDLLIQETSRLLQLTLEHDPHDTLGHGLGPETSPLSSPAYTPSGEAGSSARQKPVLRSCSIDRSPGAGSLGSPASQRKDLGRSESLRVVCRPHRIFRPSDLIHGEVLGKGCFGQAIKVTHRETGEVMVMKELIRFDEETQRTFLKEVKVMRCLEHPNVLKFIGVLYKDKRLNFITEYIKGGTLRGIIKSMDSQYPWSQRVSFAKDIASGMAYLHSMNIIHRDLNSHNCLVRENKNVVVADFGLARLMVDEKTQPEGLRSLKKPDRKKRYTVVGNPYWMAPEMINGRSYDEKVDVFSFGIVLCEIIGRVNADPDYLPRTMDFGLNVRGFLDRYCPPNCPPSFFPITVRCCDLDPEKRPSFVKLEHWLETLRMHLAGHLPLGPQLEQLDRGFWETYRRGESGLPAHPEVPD

Block 1
Host: mouse
Medium: microsomes or S9
Concentration: 2 µM
Time: 0.5 h
| Compound | remaining compound [%] |
| --- | --- |
| CCN(CC)S(=O)(=O)c1ccc(NC(=O)c2cc(OC)c(OC)c(OC)c2)cc1 | 75.1 |
| O=c1cc(-c2ccccc2)[nH]c2nc(CCc3ccccc3)nn12 | 87.6 |
| CC(C)(NC(=O)C1CCC(NC(=O)C2CCCC2)CC1)c1noc(C(N)=O)n1 (stereo not shown) | 84.1 |
| Cc1ccc(F)c(N2CCC(NS(=O)(=O)c3cnc4c(c3)c(C)nn4C)CC2)c1 | 0.278 |
| COCCCNC(=O)c1nc(CC(=O)Nc2ccc3cc[nH]c3c2)no1 | 67.9 |
| Oc1c(-c2ccccc2Br)c(-n2cncn2)nc2ccccc12 | 96.8 |

Block 2
Cell line: mouse MPNST tumor cells
Method: high-content nuclear imaging
Measured: cell number
Concentration: 10 µM
Time: 12 h
Notes: mean of 2 replicates
Reference: plate mean
Reading: higher = more cells
| SMILES | nuclei count |
| --- | --- |
| Nc1c(Br)cc(Br)cc1CN[C@H]1CC[C@H](O)CC1 | 3.71 z-score and -0.0632 z-score |
| Cc1c(C)c(NCC(=O)N(C)C2CCN(Cc3ccc(C(N)=O)cc3)CC2)c(C)c(C)c1N | -0.546 z-score |
| CC[C@H](C)C(=O)O[C@H]1CCC=C2C=C[C@H](C)[C@H](CC[C@@H]3C[C@@H](O)CC(=O)O3)[C@H]21 | -4.93 z-score and -3.61 z-score |

Block 3
Compound: CCCCN(CCCC)C(=O)CN1C[C@H](c2cc(OC)c3c(c2)OCO3)[C@@H](C(=O)O)[C@@H]1CC(C)(C)CCC
Concentration: 1 µM
| target | observed | method | remaining binding [%] |
| --- | --- | --- | --- |
| KIT (Homo sapiens, UniProt P10721) | cell-free assay | competition with immobilised ligand | 100 |
| CAMK1D (Homo sapiens, UniProt Q8IU85) | cell-free assay | competition with immobilised ligand | 100 |
| FLT3 (Homo sapiens, UniProt P36888, R834Q) | cell-free assay | competition with immobilised ligand | 64.2 |
| PRKX (Homo sapiens, UniProt P51817) | cell-free assay | competition with immobilised ligand | 100 |
| TIE1 (Homo sapiens, UniProt P35590) | cell-free assay | competition with immobilised ligand | 100 |
| LIM domain kinase 1 (LIMK1, Homo sapiens, UniProt P53667) | cell-free assay | competition with immobilised ligand | 100 |
| MAPKAPK2 (Homo sapiens, UniProt P49137) | cell-free assay | competition with immobilised ligand | 100 |
| CDC42BPG (Homo sapiens, UniProt Q6DT37) |  | competition binding | 100 |

Block 4
SMILES: CC(C)n1cnc(-c2ccc(F)cc2)c1-c1ncc(C(=O)Nc2ccc(N3CCN(C)CC3)cc2)[nH]1
Host: human, idiopathic pulmonary fibrosis
| measured | dose | notes | AE leading to discontinuation [%] |
| --- | --- | --- | --- |
|  | 30 mg once daily | trial, with standard of care | 9.1 |
| liver injury | 30 mg twice daily | trial | 5.6 |
| coronary artery atherosclerosis | 30 mg twice daily | trial | 5.6 |
|  | 30 mg twice daily | trial, with standard of care | 25 |
|  | 30 mg once daily | trial, without standard of care | 0 |

Excerpt of the above (block 3):
| target | observed | method | remaining binding [%] |
| --- | --- | --- | --- |
| KIT (Homo sapiens, UniProt P10721) | cell-free assay | competition with immobilised ligand | 100 |
| CAMK1D (Homo sapiens, UniProt Q8IU85) | cell-free assay | competition with immobilised ligand | 100 |
| FLT3 (Homo sapiens, UniProt P36888, R834Q) | cell-free assay | competition with immobilised ligand | 64.2 |
| PRKX (Homo sapiens, UniProt P51817) | cell-free assay | competition with immobilised ligand | 100 |
